# Experimental data of several laboratories.
# Parts stem from different laboratories: compare values within a part only. Substitutions count along the parent as printed.
# UniProt Q16644, sequence (whole entry, looked up): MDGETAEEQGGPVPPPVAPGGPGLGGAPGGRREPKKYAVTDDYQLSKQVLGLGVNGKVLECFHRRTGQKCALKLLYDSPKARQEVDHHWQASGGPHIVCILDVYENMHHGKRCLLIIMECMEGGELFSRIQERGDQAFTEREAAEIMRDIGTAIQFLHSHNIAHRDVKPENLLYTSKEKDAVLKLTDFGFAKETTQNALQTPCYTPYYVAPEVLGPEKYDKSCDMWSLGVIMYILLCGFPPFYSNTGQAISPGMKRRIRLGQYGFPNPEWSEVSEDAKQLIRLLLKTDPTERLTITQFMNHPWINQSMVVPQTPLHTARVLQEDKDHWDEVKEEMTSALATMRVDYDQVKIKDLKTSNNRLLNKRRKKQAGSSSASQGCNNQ
# UniProt P49761, sequence (whole entry, looked up): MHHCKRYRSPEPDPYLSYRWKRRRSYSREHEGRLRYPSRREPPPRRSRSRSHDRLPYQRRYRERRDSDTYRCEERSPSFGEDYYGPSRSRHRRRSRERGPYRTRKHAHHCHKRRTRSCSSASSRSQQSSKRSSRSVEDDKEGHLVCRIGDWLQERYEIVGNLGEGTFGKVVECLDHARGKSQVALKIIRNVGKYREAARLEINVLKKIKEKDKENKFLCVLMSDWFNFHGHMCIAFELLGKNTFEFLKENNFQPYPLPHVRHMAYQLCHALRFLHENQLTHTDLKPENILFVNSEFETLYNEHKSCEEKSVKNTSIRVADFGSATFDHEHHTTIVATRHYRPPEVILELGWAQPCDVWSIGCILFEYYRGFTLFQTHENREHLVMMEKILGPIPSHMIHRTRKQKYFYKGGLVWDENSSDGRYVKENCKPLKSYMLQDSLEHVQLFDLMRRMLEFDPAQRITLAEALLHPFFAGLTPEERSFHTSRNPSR
# UniProt P41145, sequence (whole entry, looked up): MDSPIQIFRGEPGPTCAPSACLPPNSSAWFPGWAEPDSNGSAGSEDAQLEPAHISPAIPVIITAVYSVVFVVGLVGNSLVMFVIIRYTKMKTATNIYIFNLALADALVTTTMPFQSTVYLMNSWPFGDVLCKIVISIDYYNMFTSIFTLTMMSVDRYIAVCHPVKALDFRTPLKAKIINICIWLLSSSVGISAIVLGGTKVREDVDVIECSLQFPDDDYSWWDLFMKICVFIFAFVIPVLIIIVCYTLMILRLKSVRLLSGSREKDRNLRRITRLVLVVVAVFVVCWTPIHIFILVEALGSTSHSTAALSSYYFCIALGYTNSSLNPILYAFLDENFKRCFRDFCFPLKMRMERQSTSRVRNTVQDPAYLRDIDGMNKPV
# UniProt P11229, sequence (whole entry, looked up): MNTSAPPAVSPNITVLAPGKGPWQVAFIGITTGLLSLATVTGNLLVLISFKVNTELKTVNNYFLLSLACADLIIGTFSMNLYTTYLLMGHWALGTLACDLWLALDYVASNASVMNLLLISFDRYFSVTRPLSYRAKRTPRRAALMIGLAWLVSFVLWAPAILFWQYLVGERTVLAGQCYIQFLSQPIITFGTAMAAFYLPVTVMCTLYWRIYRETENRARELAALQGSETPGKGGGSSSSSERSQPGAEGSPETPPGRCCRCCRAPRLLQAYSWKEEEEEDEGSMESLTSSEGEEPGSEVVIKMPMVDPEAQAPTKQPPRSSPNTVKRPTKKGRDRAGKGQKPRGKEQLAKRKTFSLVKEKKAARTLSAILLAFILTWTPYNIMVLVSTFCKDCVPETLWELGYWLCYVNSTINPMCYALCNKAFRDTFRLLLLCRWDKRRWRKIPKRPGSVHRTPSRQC
# UniProt Q9H093, sequence (whole entry, looked up): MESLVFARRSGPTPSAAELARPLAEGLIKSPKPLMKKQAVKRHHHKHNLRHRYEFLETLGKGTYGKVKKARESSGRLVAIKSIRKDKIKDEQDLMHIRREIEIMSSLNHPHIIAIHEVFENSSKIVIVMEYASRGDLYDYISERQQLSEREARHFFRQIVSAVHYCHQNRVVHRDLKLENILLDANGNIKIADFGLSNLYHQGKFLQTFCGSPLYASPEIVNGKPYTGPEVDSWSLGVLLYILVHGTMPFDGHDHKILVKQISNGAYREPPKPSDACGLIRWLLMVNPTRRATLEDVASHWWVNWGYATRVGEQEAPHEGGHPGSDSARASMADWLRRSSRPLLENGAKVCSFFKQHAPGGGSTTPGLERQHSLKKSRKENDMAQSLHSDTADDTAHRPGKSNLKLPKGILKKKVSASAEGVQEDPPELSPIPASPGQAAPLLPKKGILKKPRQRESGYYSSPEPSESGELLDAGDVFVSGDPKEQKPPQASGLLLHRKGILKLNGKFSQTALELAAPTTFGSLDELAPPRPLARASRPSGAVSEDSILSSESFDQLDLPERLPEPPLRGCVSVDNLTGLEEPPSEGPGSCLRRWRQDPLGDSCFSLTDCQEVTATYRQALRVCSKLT
# UniProt Q05513, sequence (whole entry, looked up): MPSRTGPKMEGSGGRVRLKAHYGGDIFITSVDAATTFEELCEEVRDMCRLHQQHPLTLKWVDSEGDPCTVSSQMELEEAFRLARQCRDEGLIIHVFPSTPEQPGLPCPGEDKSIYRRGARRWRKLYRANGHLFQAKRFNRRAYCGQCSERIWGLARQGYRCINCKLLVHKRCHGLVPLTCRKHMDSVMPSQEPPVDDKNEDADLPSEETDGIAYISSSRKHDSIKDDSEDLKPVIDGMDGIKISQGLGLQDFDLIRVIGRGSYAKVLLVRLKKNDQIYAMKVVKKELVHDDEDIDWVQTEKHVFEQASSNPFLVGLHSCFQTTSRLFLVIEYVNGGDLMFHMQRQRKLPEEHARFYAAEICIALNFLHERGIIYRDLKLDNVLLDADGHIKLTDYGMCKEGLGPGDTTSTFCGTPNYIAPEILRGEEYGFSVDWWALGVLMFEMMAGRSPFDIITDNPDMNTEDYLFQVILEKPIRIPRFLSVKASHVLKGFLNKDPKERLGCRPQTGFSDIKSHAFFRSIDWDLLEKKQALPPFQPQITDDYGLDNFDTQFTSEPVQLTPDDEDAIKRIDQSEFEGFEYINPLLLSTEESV
# UniProt Q99986, sequence (whole entry, looked up): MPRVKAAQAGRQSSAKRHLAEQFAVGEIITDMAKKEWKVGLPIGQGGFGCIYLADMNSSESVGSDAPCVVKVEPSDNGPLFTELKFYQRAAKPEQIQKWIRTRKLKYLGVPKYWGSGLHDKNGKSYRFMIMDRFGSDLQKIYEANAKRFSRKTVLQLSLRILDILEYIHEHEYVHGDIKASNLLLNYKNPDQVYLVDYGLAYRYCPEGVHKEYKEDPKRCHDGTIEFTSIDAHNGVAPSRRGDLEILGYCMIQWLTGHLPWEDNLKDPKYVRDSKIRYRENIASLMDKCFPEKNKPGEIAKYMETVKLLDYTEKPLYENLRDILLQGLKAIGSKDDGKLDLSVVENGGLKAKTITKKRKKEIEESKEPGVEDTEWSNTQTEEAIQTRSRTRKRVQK
# UniProt P06493, sequence (whole entry, looked up): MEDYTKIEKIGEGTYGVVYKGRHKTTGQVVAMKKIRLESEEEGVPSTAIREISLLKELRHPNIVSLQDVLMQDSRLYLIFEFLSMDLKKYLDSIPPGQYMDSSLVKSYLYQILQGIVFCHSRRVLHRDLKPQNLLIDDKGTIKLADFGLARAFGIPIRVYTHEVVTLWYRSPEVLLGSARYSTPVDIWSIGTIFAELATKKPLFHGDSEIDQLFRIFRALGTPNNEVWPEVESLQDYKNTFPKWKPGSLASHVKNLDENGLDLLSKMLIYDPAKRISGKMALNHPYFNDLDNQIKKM
# UniProt P41143, sequence (whole entry, looked up): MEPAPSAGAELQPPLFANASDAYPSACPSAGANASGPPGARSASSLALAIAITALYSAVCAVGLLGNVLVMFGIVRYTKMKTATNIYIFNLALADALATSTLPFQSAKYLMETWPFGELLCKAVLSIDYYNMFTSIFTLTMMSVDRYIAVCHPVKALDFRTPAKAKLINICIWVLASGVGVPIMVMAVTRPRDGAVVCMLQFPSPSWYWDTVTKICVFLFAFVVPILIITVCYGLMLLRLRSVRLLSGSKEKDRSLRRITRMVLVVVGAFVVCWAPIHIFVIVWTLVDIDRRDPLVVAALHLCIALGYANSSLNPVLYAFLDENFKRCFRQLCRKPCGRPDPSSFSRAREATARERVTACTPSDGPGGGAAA
# UniProt O15111, sequence (whole entry, looked up): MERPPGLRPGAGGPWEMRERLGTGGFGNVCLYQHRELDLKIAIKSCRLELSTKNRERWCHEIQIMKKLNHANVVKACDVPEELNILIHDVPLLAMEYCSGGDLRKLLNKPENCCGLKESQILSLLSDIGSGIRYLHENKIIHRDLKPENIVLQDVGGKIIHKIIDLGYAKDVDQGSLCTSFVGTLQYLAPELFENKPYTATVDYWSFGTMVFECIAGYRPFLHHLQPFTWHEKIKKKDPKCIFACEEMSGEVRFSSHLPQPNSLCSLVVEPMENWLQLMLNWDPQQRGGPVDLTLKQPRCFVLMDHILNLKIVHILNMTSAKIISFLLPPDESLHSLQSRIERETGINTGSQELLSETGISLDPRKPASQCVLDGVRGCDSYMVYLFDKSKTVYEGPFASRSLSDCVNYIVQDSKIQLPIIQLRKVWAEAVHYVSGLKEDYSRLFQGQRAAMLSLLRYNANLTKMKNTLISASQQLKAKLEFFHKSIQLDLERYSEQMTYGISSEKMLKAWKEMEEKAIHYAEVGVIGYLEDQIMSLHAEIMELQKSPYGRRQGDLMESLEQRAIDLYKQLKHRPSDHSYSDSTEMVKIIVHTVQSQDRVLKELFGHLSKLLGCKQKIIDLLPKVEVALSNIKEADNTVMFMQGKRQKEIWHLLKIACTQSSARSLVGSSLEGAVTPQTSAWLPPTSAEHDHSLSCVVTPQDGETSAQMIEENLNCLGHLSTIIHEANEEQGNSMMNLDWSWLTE

# Sample 1 — target: CCNB2, cyclin fold, Cln2 fusion (human); technique: yeast growth competition, sequencing; sample: yeast; notes: weak parent motif; relative to: not given; direction: higher = stronger binding; starting sequence: viral docking peptide; KGVKRKLFAEDSS
Substitution,normalised enrichment score
KGGKRKLFAEDSS [V3G],-0.096
KGVKRKLCAEDSS [F8C],0.319
KGVKRKTFAEDSS [L7T],0.608
KGVGRKLFAEDSS [K4G],0.164
KGVKRKLFAEESS [D11E],0.785
KGVKRKLFAEDNS [S12N],0.845
KGVKRKYFAEDSS [L7Y],0.414
KGVKRKLFASDSS [E10S],0.538

# Sample 2 — read-out: cell-free assay; concentration: 10 µM
# Compound: C[C@H](NC(=O)Nc1cc2[nH]ncc2c(CO)n1)c1ccccn1
target,inhibition [%]
"Delta-type opioid receptor (OPRD1, Homo sapiens, UniProt P41143)",2.71
"Kappa-type opioid receptor (OPRK1, Homo sapiens, UniProt P41145)",22.8
"D(1B) dopamine receptor (DRD5, Homo sapiens, UniProt P21918)",7.56
"Muscarinic acetylcholine receptor M1 (CHRM1, Homo sapiens, UniProt P11229)",-12.2

# Sample 3 — read-out: cell-free assay; concentration: 0.5 µM
# SMILES: O=c1[nH]c2ccccc2n1C1CCN(Cc2ccc(-c3[nH]c4cc5ncnc5cc4nc3-c3ccccc3)cc2)CC1
target,remaining signal [%]
"MAP kinase-activated protein kinase 3 (MAPKAPK3, Homo sapiens, UniProt Q16644)",104
"Inhibitor of nuclear factor kappa-B kinase subunit alpha (CHUK, Homo sapiens, UniProt O15111)",90.1
"Activin receptor type-1-like (ACVRL1, Homo sapiens, UniProt P37023)",105
"Cyclin-dependent kinase 5, with p35 (CDK5, Homo sapiens, UniProt Q00535)",91.9
"Protein kinase C alpha type (PRKCA, Homo sapiens, UniProt P17252)",84.3
"Cyclin-dependent kinase 1, with cyclin B (CDK1, Homo sapiens, UniProt P06493)",85
"Platelet-derived growth factor receptor alpha (PDGFRA, Homo sapiens, UniProt P16234)",98.2
"Serine/threonine-protein kinase Nek3 (NEK3, Homo sapiens, UniProt P51956)",97.2
"Casein kinase II subunit alpha (CSNK2A1, Homo sapiens, UniProt P68400)",94.3
"Tyrosine-protein kinase Fer (FER, Homo sapiens, UniProt P16591)",99.6
"Dual serine/threonine and tyrosine protein kinase (DSTYK, Homo sapiens, UniProt Q6XUX3)",104
"Protein kinase C zeta type (PRKCZ, Homo sapiens, UniProt Q05513)",102
"Protein kinase C delta type (PRKCD, Homo sapiens, UniProt Q05655)",98.8
"Dual specificity protein kinase CLK3 (CLK3, Homo sapiens, UniProt P49761)",111
"NUAK family SNF1-like kinase 2 (NUAK2, Homo sapiens, UniProt Q9H093)",90.4
"Cyclin-dependent kinase 7, with cyclin H (CDK7, Homo sapiens, UniProt P50613)",99.1
"Serine/threonine-protein kinase VRK1 (VRK1, Homo sapiens, UniProt Q99986)",98.3

# Sample 4 — organism: Sarcocystis neurona; read-out: parasite growth; concentration: concentration not given; notes: second screen; relative to: untreated
Compound,log2 fold change
COc1ccc(CCN)cc1OC,0.15
Cl.OC1CCCCC1N1CCC(c2ccccc2)CC1 (racemic),0.46
CCN(CC)CCOC(=O)C(O)(c1ccccc1)c1ccccc1.Cl,0.14
C[N+]1(C)CCN(c2ccccc2)CC1.[I-],0.2

# Single results of other studies — host: mouse; sample: microsomes or S9; concentration: 2 µM; time: 0.5 h
Compound,remaining compound [%]
Cc1ccc(C2CC(c3c(O)[nH]c(=O)n(C)c3=O)=NN2)s1 (centres unmarked),32.1
C/C(NN1CCCCCC1)=C1\C(=O)N(c2ccccc2C)C(=O)N=C1O,10.5
